Assay results gathered from unrelated publications.
Parts stem from different laboratories: compare values within a part only. Positions count from the first letter of the parent shown.

Set 1 — target: CRIPT, C-terminal peptide; method: DHFR complementation, deep sequencing; medium: yeast; relative to: wild type; direction: higher = weaker binding
Setting: single substitutions, model-inferred values
Starting sequence: ERBIN, PDZ domain 1 (human); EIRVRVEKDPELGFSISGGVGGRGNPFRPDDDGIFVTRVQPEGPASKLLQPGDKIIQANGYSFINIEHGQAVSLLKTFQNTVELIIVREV; partner TKNYKQTSV
Substitution	binding free energy change [kcal/mol]
R23M	-0.302
T37Y	0.658
Q79E	-0.00312
D30F	0.344
P29Q	0.0644
F27C	0.731
A58R	0.751
T77K	0.0331
S17L	1.4
R23N	-0.614
G22N	0.16
V20L	-0.113
L12D	1.27
N59P	0.836
Q50E	0.0116
G22R	0.493
T37L	0.976
I2H	0.117
F35A	1.03
S62R	0.093
G21R	0.0835
T37E	1.12
I56N	0.208
V36C	0.167
V6Q	0.519

Set 2 — target: CCNB2, cyclin fold, Cln2 fusion (human); method: yeast growth competition, sequencing; medium: yeast; setting: strong parent motif; relative to: not given; direction: higher = stronger binding
Starting sequence: BRCA2 docking peptide (human); PSIKRNLLNEFDR
Substitution	normalised enrichment score
P1G	3.37
N6R	1.4
E10S	1.27
R5K	3.36
F11P	-0.0926
L8R	0.331
F11N	-0.248
K4L	0.436
P1T	3.69
K4N	2.26
L8Y	3.22
K4C	3.91
F11C	-0.313
S2D	3.65
D12T	2.92
N9I	3.96
L7P	0.12
E10T	-0.641
R5F	-0.0855
P1I	3.52
L7V	-0.0325
R13T	3.87
D12E	4.5
N6Y	0.906
L8C	2.36

Set 3 — method: RNA Bind-n-Seq; molecule type: RNA; medium: in vitro; concentration: 365 nM; relative to: no-protein control; direction: higher = stronger binding
Target: RNA binding protein fox-1 homolog 2, RRM domain, GST-SBP tag (RBFOX2, Homo sapiens, UniProt O43251-10, residues 100-194)
Setting: natural RNA segment, single round, ends assumed
Residues (chain): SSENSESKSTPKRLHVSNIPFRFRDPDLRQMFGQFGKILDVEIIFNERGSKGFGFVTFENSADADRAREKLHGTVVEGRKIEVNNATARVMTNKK
Oligonucleotide	RBNS enrichment (R)
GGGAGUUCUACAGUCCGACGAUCAUGCUGUACACCCUAUCCAUCUGUCAGGAGCUGGGGCAAGGAGCCAGAACCCUCUGCGCCUUGAGAUGAGUCUGCCAUGAGAACUUGCUCACGCUGCAGAGUCUCUGUGGUGGAAUUCUCGGGUGCCAA	0.398
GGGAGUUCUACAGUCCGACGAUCUGAAUUCUAUGUGAAAUGUGUUAGGAUAAGUUUGCUCUGUCUCUAGAGUUCAAUGUAGAAGAUAAUUAAGAGGUAAAAUAUGAAGCUUAUCAUACACUAAAGGAGAAUAUUGGAAUUCUCGGGUGCCAA	0.948
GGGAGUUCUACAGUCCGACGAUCUAAGACCCUGCCCCACUCUCUGAGCUGCCACUAGAGCUGCCACCUUCCCUCCUGUAAUUAUUUUCUAUUUUUGUAAACUUGUUGCAUUUUUAUAUGAUUUUCUUGACUGCUGGAAUUCUCGGGUGCCAA	1.36
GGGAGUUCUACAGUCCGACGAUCAGGGGAUUCUGACAUCUGCCUUGGAAGAUGAUAGAGUCCACCUGGGGCCCAGAGAGCUGGAGCAGGAUGGAGUGGGGGCCAGUCGCCAAGGCCGCCCAGCUGCUGUGACUUGGAAUUCUCGGGUGCCAA	0.461
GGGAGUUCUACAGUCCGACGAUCUGAUGUGUGGUGACUUCCCUCUGCUGGCUUAUGCAGUGAUGGUGAAUGAACCAGUCAGUGGAAAACUGCUGAGGUGGGACAGCUGGGAGCCAGGGAGCCGAAGCAGUGCUUGGAAUUCUCGGGUGCCAA	1.29
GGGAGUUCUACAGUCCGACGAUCACCAAGAGCAGAGGCAACAAAUAGAGGCCUGGCCUCCAGGUGCCGGAUCCAGACACCUGACCUAGAAUGCCUGCCCGCUAUCCCUGUGGCAGGAAAUAUCCCCUCAUGUCUGGAAUUCUCGGGUGCCAA	0.426
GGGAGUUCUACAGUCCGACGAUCCUCUUGGCUCCUGGUCCUCUCUGUGCUCGAUUCUCUAUCCUGUGCCAGUUUCCUCUCCGUCUCACGGAUCCCCCGGCCAUGUUCAGUCCACCCCUCUCUCUCUCUCAACUUGGAAUUCUCGGGUGCCAA	0.625
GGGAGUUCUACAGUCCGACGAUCCACUCCUUCUUCGUUGUCGAUGUUGUACUCAGCCUAUGGUAGGAGAGGAUGUGGCUUUGCAACUCAGAUCAGACAAAGAAUUUUUGAAUUGGCAGGCUUUAGCCUACAAAUGGAAUUCUCGGGUGCCAA	0.619
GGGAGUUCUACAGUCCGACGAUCCAAUCCAGCCCACAAAUCCACAUGGCUGUUCCCAGCAGUGCUGUGGUACACUGUGACAGUGGCUCUAGGGGAGGAGGCCAGGAGCCUGGCCACAGUGUUGGCUGGACUCUUGGAAUUCUCGGGUGCCAA	0.266
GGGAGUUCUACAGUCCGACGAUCCGUACACAUGGUUAAAGAGCAGUGCACACACUAUCGAGGUGAUGGCGGCCAAGACUCCAGAAUCUCUGUGGGUGGAUCAUCCUCCUUGGGAGGCAUGUGCCUUGGGAAAAUGGAAUUCUCGGGUGCCAA	0.901
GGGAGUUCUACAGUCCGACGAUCCAAAACUGUAGUUCCCAAAAGAAGAUGUGUCAGGGCAAGCAGAAAGGGAAGUUUAGGCCAGAAUGUGGCCAUCCCAGAAACUGAGGCCUCUCUCAGCCUCACCAGUGACAUGGAAUUCUCGGGUGCCAA	1.64
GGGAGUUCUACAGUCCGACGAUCUAAACGAUACCUUGUUCUUGGAACUGCAUGCUGCCAAGUGCCAUUCGUACUGAGCAUCCUCAUUUCAACGCAGUAUACGCUCUAGUUAUCAUGUGUAACGUGGGUCUGUUUGGAAUUCUCGGGUGCCAA	9.74

Set 4 — method: DHFR PCA, deep sequencing; medium: yeast; with: (+)-ABA 200 µM; relative to: wild-type fitted maximum; direction: higher = stronger binding
Target: ABI1, truncated, D143A, DHFR fusion (Arabidopsis thaliana)
Setting: methotrexate growth selection, single substitutions
Starting sequence: PYL1, truncated, DHFR fusion (Arabidopsis thaliana); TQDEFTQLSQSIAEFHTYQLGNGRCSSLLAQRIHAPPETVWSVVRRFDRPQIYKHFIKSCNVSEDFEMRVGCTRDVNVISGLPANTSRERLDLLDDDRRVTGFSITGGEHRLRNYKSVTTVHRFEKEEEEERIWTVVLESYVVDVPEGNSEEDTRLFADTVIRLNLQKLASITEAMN
Substitution	relative binding score [%]
E38I	62.2
M176T	98.8
L138Y	68.9
V78N	33.6
R155Y	40.1
C60D	-1.12
R98P	1.39
T17D	81.3
W41S	-19.2
L8K	74.6
L164A	98.4
Y53K	2.28
T135M	-8.88
V143C	98.9
F124V	113
L94R	35.7

Set 5 — method: protein-binding microarray; molecule type: double-stranded DNA, one strand shown; medium: in vitro; concentration: 250 nM; setting: 60-bp whole probe; with: salmon DNA 0.4 mg/ml; relative to: random background probes; direction: higher = stronger binding; all sequences stand within: GCCTAGCAC … GTCTTGATTCGCTTGACGCTGCTG
Target: Interferon regulatory factor 5, full length, phosphomimetic (IRF5, Homo sapiens, UniProt Q13568-2, residues 1-514, K96S/S451D/S453D/S456D/S462D)
Oligonucleotide	log fluorescence [z-score]
TTAGATTTCACTATCGATTAGTGCTAG	9.46
GGATGTTGCAAATATTGCTAGGTGCTA	0.12
TCAAACATCATTTTTCCACTGTGCTAG	0.996
TTAGATCTCAGTTGCGATTAGTGCTAG	1.07
GACGGTCTCGTTATCGGGACGTGCTAG	0.751
GACGGTTCCCTTTTCCTGACGTGCTAG	0.131
GACGGTATCCTATTCCTGACGTGCTAG	0.0653
CTCCACTTGTGTTTGGGCATGTGCTAG	0.0263
GTCGGTTTCGGGTTTCGGGACGTGCTA	8.76
CGTTTTTCATTTTTTTTTTCGTGCTAG	2.52
TTTCACACTGTCCAGCAGGTGTGCTAG	7.31
TTAGATTTCAGTTCCGATCAGTGCTAG	2.75
TTAGAACTGAGTACCGATTAGTGCTAG	0.0782
TCATCTGTCATTTTCTCACTGTGCTAG	1.15
TCATATATACAAACTAAGACTGTGCTA	0.656
GACGGTTTCGACTTTTGGGACGTGCTA	5.32
GACGGTTCCCTATTCCTGACGTGCTAG	0.176
GTAGGTTTCCTACTGCTTTAGTGCTAG	0.136
ATGATGTGTCAAAAATTGCAGTGCTAG	-0.592
GACGGGATCCTTATCCTGACGTGCTAG	-0.265
TTAGATATCAATCTCGATTAGTGCTAG	1.24
TCAGTCTTCCCTTTTAAACTGTGCTAG	0.54
ATAGATTCCAGTTTCGATTAGTGCTAG	10.1
GACGGTTTCGGTTATCGGGACGTGCTA	10.3
TCTCTCCCTTTATCTCTTTTGTGCTAG	0.988

Excerpt of the above (set 1):
Substitution	binding free energy change [kcal/mol]
R23M	-0.302
T37Y	0.658
Q79E	-0.00312
D30F	0.344
P29Q	0.0644
F27C	0.731
A58R	0.751
